{"data": "Measurements from different studies", "target": "Rho-associated protein kinase 1 (ROCK1, Homo sapiens, UniProt Q13464)", "note": "Protocols differ between the studies behind these lines.", "chain of UniProt Q13464 (whole entry, looked up)": "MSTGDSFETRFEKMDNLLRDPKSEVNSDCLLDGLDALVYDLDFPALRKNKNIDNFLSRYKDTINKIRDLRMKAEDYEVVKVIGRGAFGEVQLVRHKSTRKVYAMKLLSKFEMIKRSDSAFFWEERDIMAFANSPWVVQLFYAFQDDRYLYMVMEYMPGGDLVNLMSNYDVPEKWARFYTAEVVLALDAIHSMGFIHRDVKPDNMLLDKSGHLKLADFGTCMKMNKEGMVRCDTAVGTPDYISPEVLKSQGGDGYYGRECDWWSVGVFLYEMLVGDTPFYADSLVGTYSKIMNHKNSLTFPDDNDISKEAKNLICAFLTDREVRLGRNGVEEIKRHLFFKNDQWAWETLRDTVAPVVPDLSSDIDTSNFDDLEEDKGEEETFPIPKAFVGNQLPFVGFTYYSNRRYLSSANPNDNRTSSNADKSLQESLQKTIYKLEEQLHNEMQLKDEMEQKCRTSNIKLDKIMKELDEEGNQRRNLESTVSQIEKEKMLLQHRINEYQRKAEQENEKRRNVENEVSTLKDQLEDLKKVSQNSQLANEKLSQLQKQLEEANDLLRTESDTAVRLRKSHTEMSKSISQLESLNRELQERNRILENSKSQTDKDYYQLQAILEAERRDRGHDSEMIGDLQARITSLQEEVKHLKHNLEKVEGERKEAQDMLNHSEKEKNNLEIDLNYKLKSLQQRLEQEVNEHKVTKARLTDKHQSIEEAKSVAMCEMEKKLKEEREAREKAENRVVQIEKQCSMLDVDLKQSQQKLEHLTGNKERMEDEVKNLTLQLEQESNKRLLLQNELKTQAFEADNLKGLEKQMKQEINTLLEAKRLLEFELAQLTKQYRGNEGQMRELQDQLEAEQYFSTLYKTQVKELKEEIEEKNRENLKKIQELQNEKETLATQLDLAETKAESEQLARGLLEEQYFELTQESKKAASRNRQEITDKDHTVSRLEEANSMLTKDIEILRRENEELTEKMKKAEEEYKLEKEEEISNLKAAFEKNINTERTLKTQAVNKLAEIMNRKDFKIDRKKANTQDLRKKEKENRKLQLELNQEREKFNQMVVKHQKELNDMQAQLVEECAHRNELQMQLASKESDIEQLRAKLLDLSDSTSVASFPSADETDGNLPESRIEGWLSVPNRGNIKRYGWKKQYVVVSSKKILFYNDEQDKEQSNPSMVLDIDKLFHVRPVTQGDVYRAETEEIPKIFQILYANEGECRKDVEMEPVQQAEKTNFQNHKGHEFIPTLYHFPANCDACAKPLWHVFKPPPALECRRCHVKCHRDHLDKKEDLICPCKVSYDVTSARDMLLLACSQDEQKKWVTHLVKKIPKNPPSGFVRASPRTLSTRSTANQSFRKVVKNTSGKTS"}
{"SMILES": "CNC1C[S+]2CC[S+]3CC[S+](C1)[Ru-4]321([N]=C=S)[n]2c3ccc(OC)cc3c3c4c(c5cc(F)c[n+]1c5c32)C(=O)NC4=O (stereo not shown)", "assay": "KinomeScan", "setting": "0.1 µM", "scale": "reference: untreated", "quantity": "remaining binding", "value": "100%"}
{"SMILES": "COc1c(OCCCN2CCOCC2)ccc2c1N=C(NC(=O)c1cnc(N)nc1)N1CCN=C21", "assay": "kinase activity, inhibitor", "setting": "1 µM", "scale": "reference: untreated control", "quantity": "remaining activity", "value": "115%"}
{"SMILES": "Cc1cccc(O[C@H]2CCC[C@@H](C(C)CNCc3ccncc3)C2)c1 (relative stereo)", "assay": "enzyme activity, inhibitor", "setting": "10 µM", "quantity": "inhibition", "value": "6%"}
{"SMILES": "CCN1CCN(Cc2ccc(C(=O)Nc3ccc(C)c(NCc4cnc5[nH]ccc5c4OC)c3)cc2C(F)(F)F)CC1", "assay": "binding, competition with immobilised ligand", "setting": "1 µM", "quantity": "remaining binding", "value": "100%"}
{"SMILES": "Cc1c[nH]c2nccc(-c3ccc(C(=O)N[C@@H]4c5c(F)cc(C(F)F)cc5C[C@@H]4O)cn3)c12", "assay": "binding, competition with immobilised ligand", "setting": "3 µM", "quantity": "remaining binding", "value": "0.4%"}
{"SMILES": "Cc1cnc2nc1Nc1cccc(c1)COC/C=C/COCc1cc(ccc1OCCN1CCOCC1)N2", "assay": "binding, competition with immobilised ligand", "setting": "0.1 µM", "quantity": "remaining binding", "value": "69%"}
{"SMILES": "Cc1ccc(-c2c(/C=C(\\C#N)C(=O)NC(C)C)n(CCCO)c3ncnc(N)c23)cc1", "assay": "cell-free assay, competition with immobilised ligand", "setting": "1 µM", "quantity": "remaining binding", "value": "93%"}
{"SMILES": "CCn1cc(C(=O)O)c(=O)c2c(N)c(F)c(NC3CCCCC3)cc21", "assay": "kinase activity", "setting": "0.1 µM, together with: ATP at Km", "quantity": "inhibition", "value": "1.5%"}
{"SMILES": "Nc1ncc2c(n1)-c1c([nH]c3ccc(C4=CCOCC4)cc13)CCC2", "assay": "binding, competition with immobilised ligand", "setting": "1 µM", "quantity": "remaining binding", "value": "100%"}
{"SMILES": "C=CC(=O)Nc1cccc(-c2cnc3[nH]cc(C(=O)NC(C)(C)C)c3n2)c1", "assay": "enzyme activity, inhibitor", "setting": "0.1 µM", "quantity": "inhibition", "value": "31%"}
{"SMILES": "COCC12C(=O)NC3C4(C(OC)CC1O)C1CC5(O)C(OC)C(O)C(OC(C)=O)(C1C5OC(=O)c1ccccc1)C3(O)C(OC)C24 (stereo not shown)", "assay": "kinase activity, inhibitor, ProQinase kinase profiling", "setting": "25 µM", "scale": "reference: control", "quantity": "remaining activity", "value": "99%"}
{"SMILES": "NC(=O)[C@@H](O)C[C@H]1CCc2sc3ncnc(O[C@H]4CC[C@H](N5CCOCC5)CC4)c3c21", "assay": "enzyme activity, inhibitor", "setting": "10 µM", "quantity": "inhibition", "value": "12%"}
{"SMILES": "COc1cc(Nc2nc(C)cc(-c3cnn4nc(OC)ccc34)n2)cc(C(F)(F)F)c1", "assay": "binding, competition with immobilised ligand", "setting": "1 µM", "quantity": "remaining binding", "value": "99%"}
{"SMILES": "Cc1[nH]nc2c1N=C(c1ccccc1Cl)c1cnc(N3CCOCC3)cc1N2", "assay": "enzyme activity, inhibitor", "setting": "0.5 µM", "quantity": "inhibition", "value": "1%"}
{"SMILES": "COc1ccc(NC(=O)Nc2ccc3c(c2)C(=O)N(C(C)CO)CC(C)C(CN(C)Cc2ccc4c(c2)OCO4)O3)cc1 (stereo not shown)", "assay": "kinase activity, KinaseProfiler", "setting": "0.03 µM, species human", "scale": "reference: control", "quantity": "remaining activity", "value": "109%"}
{"SMILES": "O=C(O)CCC(=O)c1cccc(NS(=O)(=O)c2c[nH]c3ncccc23)c1", "assay": "kinase activity, radiometric", "setting": "10 µM", "quantity": "remaining activity", "value": "112%"}
{"SMILES": "O=C(Cc1ccc(OCc2ccccc2)cc1)NC1(C(=O)O)CCN(C(=O)c2ccc(-c3cccc(Cl)c3)cc2)CC1", "assay": "enzyme activity, inhibitor", "setting": "10 µM", "quantity": "activity vs control", "value": "103%"}
{"SMILES": "COc1ccc(O)cc1-c1c[nH]c2ncc(-c3cncc(C(=O)N(C)C)c3)cc12", "assay": "binding, competition with immobilised ligand", "setting": "0.2 µM", "quantity": "inhibition", "value": "3.59%"}
{"SMILES": "CN1CCN(Cc2ccc(-c3ccc(CO[C@H]4CCC[C@@H]4NC(=O)c4cc(-c5cnn(C)c5)cnc4N)cc3)cc2)CC1", "assay": "enzyme activity, inhibitor", "setting": "0.1 µM", "quantity": "inhibition", "value": "7%"}
